Earlier results as cited in several papers.
Numbered parts are unrelated; values within a part may stem from several laboratories. ± marks the error that the study gave.

Block 1
Organism: Cryptosporidium parvum
Technique: high-throughput screen
Tested at: concentration not given
`C[C@]12C[C@H](O)[C@H]3[C@@H](CCC4=CC(=O)CC[C@@]43C)[C@@H]1CC[C@@H]2C(=O)CO`: activity “inactive”.
Under activity, `O=[N+]([O-])c1cccc2cn[nH]c12` is recorded as “inactive”.
`O=C1CC2(CCCC2)CC(=O)N1CCCCN1CCN(c2ncccn2)CC1` — result for activity: “inactive”.
Under activity, `CN1C(=O)CC[C@H]1c1cccnc1` is recorded as “inactive”.
Under activity, `C[C@@H]1C[C@H]2[C@@H]3CCC4=CC(=O)C=C[C@]4(C)[C@@]3(F)[C@@H](O)C[C@]2(C)[C@@]1(O)C(=O)CO` is recorded as “inactive”.
`CN(C)CCCC1(c2ccc(F)cc2)OCc2cc(C#N)ccc21` (centres unmarked) — result for activity: “inactive”.
`C[C@H](CS)C(=O)N1CCC[C@H]1C(=O)O`: activity “inactive”.
For `CC(Oc1c(Cl)cccc1Cl)C1=NCCN1` (centres unmarked), activity read “inactive”.
`CC[N+](C)(CC)CCOC(=O)C(O)(c1ccccc1)C1CCCCC1` (centres unmarked) — result for activity: “inactive”.
Under activity, `CC(=O)NC[C@H]1CN(c2ccc(N3CCOCC3)c(F)c2)C(=O)O1` is recorded as “inactive”.
`CN1CCC(=C2c3ccccc3CC(=O)c3sccc32)CC1`: activity “inactive”.
`CN1C(C(=O)Nc2ccccn2)=C(O)c2ccccc2S1(=O)=O.O`: activity “inactive”.
`CC(C)OC(=O)C(C)(C)Oc1ccc(C(=O)c2ccc(Cl)cc2)cc1`: activity “inactive”.
`CCCC1O[C@@H]2C[C@H]3[C@@H]4CCC5=CC(=O)C=C[C@]5(C)[C@H]4[C@@H](O)C[C@]3(C)[C@]2(C(=O)CO)O1` (some centres unmarked) — result for activity: “inactive”.
`CCCNC(=O)NS(=O)(=O)c1ccc(Cl)cc1`: activity “inactive”.
Under activity, `Nc1ccn([C@@H]2O[C@H](CO)[C@@H](O)[C@@H]2O)c(=O)n1` is recorded as “inactive”.
Under activity, `Cc1noc(NS(=O)(=O)c2ccc(N)cc2)c1C` is recorded as “inactive”.
For `NC(=O)N1c2ccccc2C=Cc2ccccc21`, activity read “inactive”.
`Cn1nnc2c(C(N)=O)ncn2c1=O`: activity “inactive”.
`CN1C2CCCC1CC(NC(=O)c1nn(C)c3ccccc13)C2` (centres unmarked): activity “inactive”.
`CN(C)CCCN1c2ccccc2Sc2ccc(Cl)cc21`: activity “inactive”.
`OCCN1CCN(CCCN2c3ccccc3Sc3ccc(Cl)cc32)CC1` — result for activity: “inactive”.
For `CC(C)(C)NCC(O)c1cc(O)cc(O)c1` (centres unmarked), activity read “inactive”.
Under activity, `O=C(CCCN1CCC(O)(c2ccc(Cl)cc2)CC1)c1ccc(F)cc1` is recorded as “inactive”.
`CN(C)CC[C@@H](c1ccc(Cl)cc1)c1ccccn1` — result for activity: “inactive”.

Mixed results
For `C=C[C@@H]1C[C@]1(NC(=O)[C@@H]1C[C@@H]2CN1C(=O)[C@H](C(C)(C)C)NC(=O)O[C@@H]1C[C@H]1CCCCCc1nc3ccc(OC)cc3nc1O2)C(=O)NS(=O)(=O)C1CC1`, the unbound fraction was about 1% (plasma).
`C[C@H](C(=O)NCc1ccccc1)N1C(=O)CCC1=O` gave a protective index of over 7.5 (CD-1 mice, MES-induced seizures; intraperitoneal).
The unbound fraction of `COC(=O)N[C@H](C(=O)N1CCC[C@H]1c1nc(-c2ccc3c(c2)O[C@@H](c2ccccc2)n2c-3cc3cc(-c4c[nH]c([C@@H]5CCCN5C(=O)[C@@H](NC(=O)OC)C(C)C)n4)ccc32)c[nH]1)C(C)C` is reported as about 1% (plasma).
The oral bioavailability of `COC(=O)Nc1nc2ccc(C(=O)c3ccccc3)cc2[nH]1` is reported as 12 to 35% (human; oral).
`O=[N+]([O-])c1ccc(O)c2ncccc12` has an MBEC of 93.8 µM (Staphylococcus aureus; biofilm eradication; MRSA BAA-1707).
The Tmax of `Cc1nc(-c2ccc(OCC(C)C)c(C#N)c2)sc1C(=O)O` is reported as 1.7 ± 1.1 h (human; oral, 120 mg, fasting).
`CC[C@H](C)[C@H](NC(=O)CN)C(=O)NCC(=O)N[C@@H](CCCCN)C(=O)N[C@@H](Cc1ccccc1)C(=O)N[C@@H](CC(C)C)C(=O)N[C@@H](CCCCN)C(=O)N[C@@H](CCCCN)C(=O)N[C@@H](C)C(=O)N[C@@H](CCCCN)C(=O)N[C@@H](CCCCN)C(=O)N[C@@H](Cc1ccccc1)C(=O)NCC(=O)N[C@@H](CCCCN)C(=O)N[C@@H](C)C(=O)N[C@@H](Cc1ccccc1)C(=O)N[C@H](C(=O)N[C@@H](CCCCN)C(=O)N[C@H](C(=O)N[C@@H](CC(C)C)C(=O)N[C@@H](CCCCN)C(=O)N[C@@H](CCCCN)C(N)=O)[C@@H](C)CC)C(C)C` gave an MIC of 32 µg/mL (Staphylococcus aureus; ATCC 33591).
`CC1CCN(c2ccnc(NCc3cn(C)cn3)n2)CC1` gave an IC50 of over 10000 nM (HEXB).
`CCc1c(Cl)c(O)c(Cl)c(O)c1C(=O)O[C@H]1[C@H](O)[C@H](OC)[C@H](OC/C2=C\C=C\C[C@H](O)/C(C)=C/[C@H](CC)[C@@H](O[C@@H]3OC(C)(C)[C@@H](OC(=O)C(C)C)[C@H](O)[C@@H]3O)/C(C)=C/C(C)=C/C[C@@H]([C@@H](C)O)OC2=O)O[C@@H]1C` gave an MIC of under 0.06 µg/mL (Fusobacterium nucleatum; HM-992).
The solubility limit of `CC(CO)(CO)CO` is reported as over 2500 mM (water).
The half-life of `CC(=O)O[C@@H]1CC[C@@]2(C)[C@@H](CC[C@]3(C)[C@@H]2C(=O)C=C2[C@@H]4[C@@H](C)[C@H](C)CC[C@]4(C)CC[C@]23C)[C@@]1(C)C(=O)O` is reported as 4 h (oral).
`CCOc1c([C@H](C)n2nc(C)c3c(N)ncnc32)cc(Cl)c(F)c1[C@@H]1CNC(=O)C1` gave an AUC(0-inf) increase of 107% (human; oral, 10 mg once daily, together with: itraconazole; baseline: compound alone).
`CN[C@H](CC(C)C)C(=O)N[C@H]1C(=O)N[C@@H](CC(N)=O)C(=O)N[C@H]2C(=O)N[C@H]3C(=O)N[C@H](C(=O)N[C@H](C(=O)O)c4cc(O)cc(O)c4-c4cc3ccc4O)[C@H](O)c3ccc(c(Cl)c3)Oc3cc2cc(c3O[C@@H]2O[C@H](CO)[C@@H](O)[C@H](O)[C@H]2O[C@H]2C[C@](C)(N)[C@H](O)[C@H](C)O2)Oc2ccc(cc2Cl)[C@H]1O` gave an MIC of 0.00034 mM (Streptococcus pneumoniae; NBRC 102642).
The IC50 of `CC(=O)Nc1ncc(CN2CCC[C@H](Cc3cc(C)nc(C)c3)C2)s1` is reported as 3.9 nM (OGA (human); cellular activity).
`O=C(CCC(C(=O)[O-])N1CCN(C(CCC(=O)NCC(O)CO)C(=O)[O-])Cc2cccc(n2)CN(C(CCC(=O)NCC(O)CO)C(=O)[O-])CC1)NCC(O)CO.[Gd+3]` (centres unmarked) has a dissociation half-life of 480 h.
`O=C(O)c1cc([N+](=O)[O-])ccc1NCCCc1ccccc1` has a logP of 4.1.
With `Oc1ccc(-c2nc(-c3ccc(OC4CCCC4)cc3)no2)cc1` the MIC was over 128 µg/mL (Klebsiella pneumoniae; ATCC 700603).
For `CC[C@H](C)[C@H](N)C(=O)N[C@@H](CC(C)C)C(=O)N[C@@H](CCCNC(=N)N)C(=O)N[C@@H](Cc1c[nH]c2ccccc12)C(=O)N1CCC[C@H]1C(=O)N[C@@H](Cc1c[nH]c2ccccc12)C(=O)N[C@@H](Cc1c[nH]c2ccccc12)C(=O)N1CCC[C@H]1C(=O)N[C@@H](Cc1c[nH]c2ccccc12)C(=O)N[C@@H](CCCNC(=N)N)C(=O)N[C@@H](CCCNC(=N)N)C(=O)N[C@@H](CCCCN)C(N)=O`, the MIC was 64 µg/mL (Staphylococcus aureus; ATCC 33591).
`CC(C)C[C@@H](NC(=O)[C@H](C)NC(=O)CNC(=O)[C@@H](NC=O)C(C)C)C(=O)N[C@@H](C)C(=O)N[C@@H](C(=O)N[C@H](C(=O)N[C@@H](C(=O)N[C@@H](Cc1c[nH]c2ccccc12)C(=O)N[C@H](CC(C)C)C(=O)N[C@@H](Cc1c[nH]c2ccccc12)C(=O)N[C@H](CC(C)C)C(=O)N[C@@H](Cc1c[nH]c2ccccc12)C(=O)N[C@@H](C(=O)N[C@@H](Cc1c[nH]c2ccccc12)C(=O)NCCO)C(C)C)[C@H](C)O)C(C)C)C(C)C` gave an IC50 of 387 ± 90.9 nM (P388 mouse leukaemia; cytotoxicity).
With `O=S(=O)(O)c1cc(N=C=S)ccc1C=Cc1ccc(N=C=S)cc1S(=O)(=O)O` the logP was 4.5.
For `O=C(O)CCCCCN1C(=O)/C(=C2/C(=O)N(Cc3ccc(F)cc3)c3ccccc32)SC1=S`, the IC50 was 11000 nM (sheep AANAT; inhibitor; literature value).
With `O=C(Cc1ccccc1)Nc1nnc(N2C[C@H]3C[C@@H]2CN3c2cccnn2)s1` the IC50 was 31 nM (GLS; biochemical).
`O=C(CBr)NCCc1c[nH]c2ccccc12` has an IC50 of 400 nM (rat pinealocytes).
For `COc1cccc(CNC(=O)c2nc3scc(COCc4ccc(C(=O)O)cc4)c3c(=O)[nH]2)c1`, the IC50 was under 100 nM (MMP13 (human); cellular activity).
`CC(C(=O)NCC(=O)NCC(CNC(=O)CNC(=O)C(C)N1CCN(CC(=O)[O-])CCN(CC(=O)[O-])CCN(CC(=O)[O-])CC1)(CNC(=O)CNC(=O)C(C)N1CCN(CC(=O)[O-])CCN(CC(=O)[O-])CCN(CC(=O)[O-])CC1)CNC(=O)CNC(=O)C(C)N1CCN(CC(=O)[O-])CCN(CC(=O)[O-])CCN(CC(=O)[O-])CC1)N1CCN(CC(=O)[O-])CCN(CC(=O)[O-])CCN(CC(=O)[O-])CC1.[Gd+3].[Gd+3].[Gd+3].[Gd+3]` (centres unmarked) gave a T1 relaxivity of 11.8 L/(mmol Gd·s) (human plasma; 1.41 T).

Excerpt of the above (block 1):
For `CC(Oc1c(Cl)cccc1Cl)C1=NCCN1` (centres unmarked), activity read “inactive”.
Under activity, `Cc1noc(NS(=O)(=O)c2ccc(N)cc2)c1C` is recorded as “inactive”.
`CN1C2CCCC1CC(NC(=O)c1nn(C)c3ccccc13)C2` (centres unmarked): activity “inactive”.
`CC[N+](C)(CC)CCOC(=O)C(O)(c1ccccc1)C1CCCCC1` (centres unmarked) — result for activity: “inactive”.
`CN(C)CC[C@@H](c1ccc(Cl)cc1)c1ccccn1` — result for activity: “inactive”.
